{"data": "Measured values collected from several papers", "note": "Every numbered part comes from another study and shows a few of its results, in no order. Substitutions count along the parent as printed.", "sequence of UniProt P49761 (whole entry, looked up)": "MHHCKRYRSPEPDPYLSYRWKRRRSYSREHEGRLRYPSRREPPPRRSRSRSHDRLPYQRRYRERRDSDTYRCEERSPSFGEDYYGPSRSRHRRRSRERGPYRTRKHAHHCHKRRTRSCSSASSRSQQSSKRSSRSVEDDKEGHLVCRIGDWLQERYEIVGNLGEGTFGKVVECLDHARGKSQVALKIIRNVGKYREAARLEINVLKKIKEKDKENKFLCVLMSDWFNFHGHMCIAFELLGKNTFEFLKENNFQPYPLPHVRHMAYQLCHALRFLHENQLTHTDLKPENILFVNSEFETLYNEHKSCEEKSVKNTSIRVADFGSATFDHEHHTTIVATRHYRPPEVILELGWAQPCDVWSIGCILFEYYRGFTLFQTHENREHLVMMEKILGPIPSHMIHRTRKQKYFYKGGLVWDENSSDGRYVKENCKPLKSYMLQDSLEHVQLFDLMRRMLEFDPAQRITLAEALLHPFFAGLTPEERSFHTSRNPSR", "sequence of UniProt Q86UE8 (whole entry, looked up)": "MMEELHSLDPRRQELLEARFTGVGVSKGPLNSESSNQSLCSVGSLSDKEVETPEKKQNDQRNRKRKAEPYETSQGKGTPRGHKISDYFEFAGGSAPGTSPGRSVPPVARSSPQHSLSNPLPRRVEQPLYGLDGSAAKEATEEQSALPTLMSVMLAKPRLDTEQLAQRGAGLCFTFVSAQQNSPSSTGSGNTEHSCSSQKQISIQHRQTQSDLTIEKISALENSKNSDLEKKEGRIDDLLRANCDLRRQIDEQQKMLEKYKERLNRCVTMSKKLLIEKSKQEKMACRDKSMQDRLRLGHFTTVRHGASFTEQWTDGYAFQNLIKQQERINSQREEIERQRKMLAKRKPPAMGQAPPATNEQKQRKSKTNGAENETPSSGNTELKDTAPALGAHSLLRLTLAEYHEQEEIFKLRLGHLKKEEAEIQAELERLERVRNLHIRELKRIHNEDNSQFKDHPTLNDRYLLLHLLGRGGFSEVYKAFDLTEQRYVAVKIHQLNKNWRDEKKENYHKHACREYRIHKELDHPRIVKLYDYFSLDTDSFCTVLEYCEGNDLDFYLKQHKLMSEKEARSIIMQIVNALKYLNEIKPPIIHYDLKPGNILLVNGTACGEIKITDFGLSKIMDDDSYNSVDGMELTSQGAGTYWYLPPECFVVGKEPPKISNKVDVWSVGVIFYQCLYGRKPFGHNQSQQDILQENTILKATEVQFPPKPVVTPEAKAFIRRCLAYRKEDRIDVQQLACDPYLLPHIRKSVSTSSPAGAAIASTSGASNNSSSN", "sequence of UniProt Q7KZI7 (whole entry, looked up)": "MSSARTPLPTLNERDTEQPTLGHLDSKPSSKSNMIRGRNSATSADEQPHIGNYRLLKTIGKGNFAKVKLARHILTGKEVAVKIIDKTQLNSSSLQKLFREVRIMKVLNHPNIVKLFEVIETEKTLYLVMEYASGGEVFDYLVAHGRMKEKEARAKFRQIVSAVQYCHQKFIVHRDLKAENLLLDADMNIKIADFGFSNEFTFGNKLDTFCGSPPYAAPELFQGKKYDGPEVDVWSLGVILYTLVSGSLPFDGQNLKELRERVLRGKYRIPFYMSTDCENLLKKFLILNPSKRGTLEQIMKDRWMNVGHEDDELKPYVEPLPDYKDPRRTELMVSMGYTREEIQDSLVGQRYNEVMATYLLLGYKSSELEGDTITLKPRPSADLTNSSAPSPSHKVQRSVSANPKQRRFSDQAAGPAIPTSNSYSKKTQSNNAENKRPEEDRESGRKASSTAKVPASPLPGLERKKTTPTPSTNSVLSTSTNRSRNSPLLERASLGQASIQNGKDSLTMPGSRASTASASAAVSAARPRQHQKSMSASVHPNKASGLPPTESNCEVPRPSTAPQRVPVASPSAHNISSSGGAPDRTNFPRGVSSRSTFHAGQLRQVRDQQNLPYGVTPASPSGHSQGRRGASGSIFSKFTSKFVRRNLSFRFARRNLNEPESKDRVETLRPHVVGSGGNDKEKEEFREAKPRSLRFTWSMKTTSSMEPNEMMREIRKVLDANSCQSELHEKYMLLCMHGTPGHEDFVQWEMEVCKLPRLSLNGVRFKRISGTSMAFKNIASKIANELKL", "sequence of UniProt Q6P2M8 (whole entry, looked up)": "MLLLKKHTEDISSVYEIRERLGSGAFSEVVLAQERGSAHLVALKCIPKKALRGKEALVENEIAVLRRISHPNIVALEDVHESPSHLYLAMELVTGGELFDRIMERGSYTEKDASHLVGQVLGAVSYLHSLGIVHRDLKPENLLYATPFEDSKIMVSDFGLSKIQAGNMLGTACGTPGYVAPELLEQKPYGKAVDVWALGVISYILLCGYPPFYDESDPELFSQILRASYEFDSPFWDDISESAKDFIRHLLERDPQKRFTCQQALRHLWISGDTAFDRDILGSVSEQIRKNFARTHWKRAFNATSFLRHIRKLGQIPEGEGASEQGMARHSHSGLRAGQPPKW", "sequence of UniProt P32298 (whole entry, looked up)": "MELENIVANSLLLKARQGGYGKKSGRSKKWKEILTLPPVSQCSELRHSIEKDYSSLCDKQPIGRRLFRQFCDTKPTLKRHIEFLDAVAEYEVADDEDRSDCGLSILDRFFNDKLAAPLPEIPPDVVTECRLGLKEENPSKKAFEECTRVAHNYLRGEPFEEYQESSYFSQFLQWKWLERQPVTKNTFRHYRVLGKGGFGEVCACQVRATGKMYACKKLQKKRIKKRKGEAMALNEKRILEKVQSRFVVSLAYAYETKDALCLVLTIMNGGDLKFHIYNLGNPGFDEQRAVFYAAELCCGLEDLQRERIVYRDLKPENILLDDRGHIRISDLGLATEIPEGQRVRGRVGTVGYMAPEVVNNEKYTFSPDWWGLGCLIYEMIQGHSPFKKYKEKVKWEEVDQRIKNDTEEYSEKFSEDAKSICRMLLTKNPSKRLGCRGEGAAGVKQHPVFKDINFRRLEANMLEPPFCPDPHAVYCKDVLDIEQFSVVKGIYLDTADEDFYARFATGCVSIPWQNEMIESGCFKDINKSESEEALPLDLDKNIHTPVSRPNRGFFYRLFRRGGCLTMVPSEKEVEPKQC", "sequence of UniProt Q13464 (whole entry, looked up)": "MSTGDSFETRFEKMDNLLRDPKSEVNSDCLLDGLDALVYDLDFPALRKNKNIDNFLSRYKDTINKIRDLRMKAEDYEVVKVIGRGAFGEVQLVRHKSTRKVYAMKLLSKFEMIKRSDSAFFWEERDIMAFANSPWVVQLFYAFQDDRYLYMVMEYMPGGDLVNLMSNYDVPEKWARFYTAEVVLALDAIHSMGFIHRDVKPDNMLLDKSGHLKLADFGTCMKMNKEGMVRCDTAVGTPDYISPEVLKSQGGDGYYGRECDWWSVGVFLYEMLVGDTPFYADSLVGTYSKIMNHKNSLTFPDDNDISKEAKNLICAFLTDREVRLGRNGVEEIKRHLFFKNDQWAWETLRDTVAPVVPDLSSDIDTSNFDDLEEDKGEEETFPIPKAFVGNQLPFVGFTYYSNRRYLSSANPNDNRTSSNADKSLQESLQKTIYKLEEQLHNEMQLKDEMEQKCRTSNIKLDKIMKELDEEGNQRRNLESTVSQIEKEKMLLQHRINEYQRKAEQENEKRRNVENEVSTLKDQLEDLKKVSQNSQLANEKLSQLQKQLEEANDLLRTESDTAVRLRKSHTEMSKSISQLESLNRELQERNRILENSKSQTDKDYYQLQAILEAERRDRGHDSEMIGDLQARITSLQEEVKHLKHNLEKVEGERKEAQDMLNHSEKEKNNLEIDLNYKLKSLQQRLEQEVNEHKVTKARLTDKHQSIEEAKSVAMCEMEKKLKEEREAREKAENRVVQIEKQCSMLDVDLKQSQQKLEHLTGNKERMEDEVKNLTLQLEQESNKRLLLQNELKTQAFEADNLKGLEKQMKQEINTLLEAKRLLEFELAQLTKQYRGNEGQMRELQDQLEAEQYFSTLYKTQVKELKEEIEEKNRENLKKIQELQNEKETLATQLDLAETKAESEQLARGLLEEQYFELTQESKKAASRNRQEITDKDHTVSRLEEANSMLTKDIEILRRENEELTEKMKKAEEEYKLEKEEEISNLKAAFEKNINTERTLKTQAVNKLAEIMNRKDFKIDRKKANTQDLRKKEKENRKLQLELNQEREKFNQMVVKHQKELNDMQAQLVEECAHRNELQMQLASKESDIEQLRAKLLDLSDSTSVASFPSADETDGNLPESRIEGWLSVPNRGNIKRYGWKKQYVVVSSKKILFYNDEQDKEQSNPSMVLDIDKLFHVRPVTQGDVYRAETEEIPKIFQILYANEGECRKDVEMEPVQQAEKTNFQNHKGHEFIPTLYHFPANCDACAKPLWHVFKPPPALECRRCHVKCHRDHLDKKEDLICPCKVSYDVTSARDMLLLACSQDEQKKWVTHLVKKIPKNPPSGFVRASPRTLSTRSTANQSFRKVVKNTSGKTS", "sequence of UniProt P50750 (whole entry, looked up)": "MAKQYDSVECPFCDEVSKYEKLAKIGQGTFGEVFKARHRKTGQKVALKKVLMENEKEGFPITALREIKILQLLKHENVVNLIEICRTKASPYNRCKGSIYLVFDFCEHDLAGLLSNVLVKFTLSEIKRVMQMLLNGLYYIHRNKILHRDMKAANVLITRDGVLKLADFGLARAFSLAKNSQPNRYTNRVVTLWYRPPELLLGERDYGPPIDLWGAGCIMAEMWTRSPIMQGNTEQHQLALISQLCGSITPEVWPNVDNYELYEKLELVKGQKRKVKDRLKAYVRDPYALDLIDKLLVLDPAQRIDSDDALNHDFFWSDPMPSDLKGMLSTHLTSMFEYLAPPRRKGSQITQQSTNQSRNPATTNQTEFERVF"}
{"data": "Block 1", "target": "RING finger protein unkempt homolog, zinc fingers 1-6, GST-SBP tag (UNK, Homo sapiens, UniProt Q9C0B0, residues 30-357)", "technique": "RNA Bind-n-Seq", "form": "RNA", "matrix": "in vitro", "tested at": "not given", "setting": "RNA with constant flanks, human-mouse chimeric sites, ends assumed", "relative to": "input RNA pool", "reading": "higher = stronger binding", "sequence of UniProt Q9C0B0 (30-357, looked up)": "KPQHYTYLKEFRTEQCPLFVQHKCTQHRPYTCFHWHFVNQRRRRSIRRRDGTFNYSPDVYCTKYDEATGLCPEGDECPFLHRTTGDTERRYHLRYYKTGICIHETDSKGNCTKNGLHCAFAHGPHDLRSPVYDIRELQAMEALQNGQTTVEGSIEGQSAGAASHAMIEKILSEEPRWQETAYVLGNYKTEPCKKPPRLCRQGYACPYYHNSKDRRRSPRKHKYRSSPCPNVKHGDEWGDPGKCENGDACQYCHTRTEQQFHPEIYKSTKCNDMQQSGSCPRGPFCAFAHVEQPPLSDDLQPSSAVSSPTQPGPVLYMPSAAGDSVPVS"}
{"Sequence": "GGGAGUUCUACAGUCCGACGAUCAAAGUGAUGACUAUGUUUGUACAGCGACAGGUAUUUUCUGAGAACAAAGAUGAGAUUGCGUUAGUCCUCUAUGGCACAGAUGGCACUGAUAAUGCCCUUGCUGGCAAGGACCAGUAUCAGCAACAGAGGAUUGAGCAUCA", "bound/input enrichment [ratio]": 0.111}
{"Sequence": "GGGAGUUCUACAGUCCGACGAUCAACGUGGAGUUGAGUUCCUUGGCCCGGCUUCCCAGCUUAAAUAAACUCCGGAAGUUGGAACUUAGUGAUAAUAUAAUUUCUGGAGGCUUGGAAGUCCUGGCAGAGAAAUGUCCAAAUCUUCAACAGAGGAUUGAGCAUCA", "bound/input enrichment [ratio]": 2.93}
{"Sequence": "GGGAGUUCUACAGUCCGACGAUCGAGUCGAGCAAACUUGAAACAAUUCGUUAUCUUGCAGAGCUUCGGUGCACUUGCUUGGCGAUAGCAUUGGGGUUUUAUAGGUUCUGGGGAAGUAGUAGACGAUGAUGCUGCCGCUGCUGCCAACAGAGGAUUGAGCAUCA", "bound/input enrichment [ratio]": 1.03}
{"Sequence": "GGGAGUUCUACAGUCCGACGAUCGUAGCUGGGACUACAGAAAUGCUGGUAAUUUCAGUCACUUGCUGAUGACUUCUGAUGACCUAGCAAAUGUUGGCAUUCACUGCAAUAGAGAAGAUACUUCUGAGGACCCACGUCUAAGGUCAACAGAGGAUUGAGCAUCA", "bound/input enrichment [ratio]": 0.358}
{"Sequence": "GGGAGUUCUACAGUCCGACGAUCUCCCAAAUCCAGCAGCUAGAAGGAGCCAAUUGUUUGUCACUCCACACACAGGGAAGGCGAUAACAUUGUACAUUGGUUUACAUUUUUCUCCUUGAAUGAUUUUUCUAGAGGUCAUAGUGCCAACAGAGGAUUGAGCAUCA", "bound/input enrichment [ratio]": 0.379}
{"Sequence": "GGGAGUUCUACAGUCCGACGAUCGAACCUGCUCUCUCUGAUGAAGAUGAGGAAGACAAUGAUGAUGUUGAACCCAUUUCUGAAUUUAGAUUUGUGCCCAGUGAUAAGUCAGCAUUGGAGGCGAUGUUCACAGCAAUGUGUGAGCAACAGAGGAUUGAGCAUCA", "bound/input enrichment [ratio]": 1.03}
{"Sequence": "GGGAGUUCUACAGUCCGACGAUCUCUUUAAAAAAAAAAUUACAGGAAAAUCAUAUUAUAGCCCUCCCAUAGAUCCACGUUCAAGCUCAAAGAGCAAAGGCUUUGCACGGAGCUCAAACAUCUGAUGAAGAAAGAUUUCUGAGACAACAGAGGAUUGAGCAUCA", "bound/input enrichment [ratio]": 2.96}
{"Sequence": "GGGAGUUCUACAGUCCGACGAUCUCUUUGUGUAACUUAUCUGUAAAAGGUUCCCCCCCCCACUGUCAAAAAAAUAUGCAUGUAUAGUAAUUAGGACUUCAUUCCUCCAUGUUUUCUUCCCUUAUCUUACUGUCAUUGUCCUUACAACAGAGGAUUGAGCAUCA", "bound/input enrichment [ratio]": 2.34}
{"data": "Block 2", "Compound": "Nc1c(C(=O)NCc2ccc(C(=O)NCCCC3CCCCC3)cc2)cnn1-c1ccccc1", "effect on": "cell-free assay", "technique": "competition with immobilised ligand", "tested at": "0.1 µM"}
{"target": "Serine/threonine-protein kinase SIK3 (SIK3, Homo sapiens, UniProt Q9Y2K2)", "remaining binding": "94%"}
{"target": "Tyrosine-protein kinase Lck (LCK, Homo sapiens, UniProt P06239)", "remaining binding": "82%"}
{"target": "Ephrin type-B receptor 1 (EPHB1, Homo sapiens, UniProt P54762)", "remaining binding": "100%"}
{"target": "LIM domain kinase 2 (LIMK2, Homo sapiens, UniProt P53671)", "remaining binding": "100%"}
{"target": "Receptor-type tyrosine-protein kinase FLT3 (FLT3, Homo sapiens, UniProt P36888, R834Q)", "remaining binding": "100%"}
{"data": "Block 3", "target": "CCNE1, cyclin fold, Cln2 fusion (human)", "technique": "yeast growth competition, sequencing", "matrix": "yeast", "setting": "strong parent motif", "relative to": "not given", "reading": "higher = stronger binding", "starting sequence": "CDKN1B docking peptide (human); PSACRNLFGPVDH"}
{"Substitution": "C4Y", "normalised enrichment score": 0.312}
{"Substitution": "F8R", "normalised enrichment score": 0.491}
{"Substitution": "L7V", "normalised enrichment score": 0.617}
{"Substitution": "A3I", "normalised enrichment score": 2.13}
{"Substitution": "P10H", "normalised enrichment score": 2.21}
{"Substitution": "C4E", "normalised enrichment score": 0.445}
{"Substitution": "G9W", "normalised enrichment score": 0.992}
{"Substitution": "G9M", "normalised enrichment score": 1.26}
{"data": "Block 4", "SMILES": "CC(C)[C@H](CO)Nc1nc(Nc2cccc(Cl)c2)c2ncn(C(C)C)c2n1", "effect on": "enzyme activity", "mode": "inhibitor", "tested at": "0.5 µM", "relative to": "control"}
{"target": "MAP/microtubule affinity-regulating kinase 4 (MARK4, Homo sapiens, UniProt Q96L34)", "remaining activity [%]": 89.8}
{"target": "Misshapen-like kinase 1 (MINK1, Homo sapiens, UniProt Q8N4C8)", "remaining activity [%]": 98.6}
{"target": "Serine/threonine-protein kinase Nek3 (NEK3, Homo sapiens, UniProt P51956)", "remaining activity [%]": 94.2}
{"target": "Cyclin-dependent kinase 9, with cyclin K (CDK9, Homo sapiens, UniProt P50750)", "remaining activity [%]": 63.6}
{"target": "Serine/threonine-protein kinase DCLK2 (DCLK2, Homo sapiens, UniProt Q8N568)", "remaining activity [%]": 100}
{"target": "Discoidin domain-containing receptor 2 (DDR2, Homo sapiens, UniProt Q16832)", "remaining activity [%]": 99.1}
{"target": "Dual specificity protein kinase CLK3 (CLK3, Homo sapiens, UniProt P49761)", "remaining activity [%]": 89.7}
{"target": "Tyrosine-protein kinase TXK (TXK, Homo sapiens, UniProt P42681)", "remaining activity [%]": 54.1}
{"target": "Serine/threonine-protein kinase MARK2 (MARK2, Homo sapiens, UniProt Q7KZI7)", "remaining activity [%]": 95.7}
{"target": "Dual specificity mitogen-activated protein kinase kinase 1 (MAP2K1, Homo sapiens, UniProt Q02750)", "remaining activity [%]": 96}
{"target": "G protein-coupled receptor kinase 4 (GRK4, Homo sapiens, UniProt P32298)", "remaining activity [%]": 91.1}
{"target": "Serine/threonine-protein kinase tousled-like 2 (TLK2, Homo sapiens, UniProt Q86UE8)", "remaining activity [%]": 94.7}
{"target": "Rho-associated protein kinase 1 (ROCK1, Homo sapiens, UniProt Q13464)", "remaining activity [%]": 100}
{"target": "Calcium/calmodulin-dependent protein kinase type 1B (PNCK, Homo sapiens, UniProt Q6P2M8)", "remaining activity [%]": 97.8}
{"note": "Excerpt of the above (block 1):"}
{"Sequence": "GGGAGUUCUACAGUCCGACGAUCGAACCUGCUCUCUCUGAUGAAGAUGAGGAAGACAAUGAUGAUGUUGAACCCAUUUCUGAAUUUAGAUUUGUGCCCAGUGAUAAGUCAGCAUUGGAGGCGAUGUUCACAGCAAUGUGUGAGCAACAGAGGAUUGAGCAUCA", "bound/input enrichment [ratio]": 1.03}
{"Sequence": "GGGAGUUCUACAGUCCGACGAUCGAGUCGAGCAAACUUGAAACAAUUCGUUAUCUUGCAGAGCUUCGGUGCACUUGCUUGGCGAUAGCAUUGGGGUUUUAUAGGUUCUGGGGAAGUAGUAGACGAUGAUGCUGCCGCUGCUGCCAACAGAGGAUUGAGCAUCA", "bound/input enrichment [ratio]": 1.03}
{"Sequence": "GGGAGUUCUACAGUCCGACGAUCUCUUUGUGUAACUUAUCUGUAAAAGGUUCCCCCCCCCACUGUCAAAAAAAUAUGCAUGUAUAGUAAUUAGGACUUCAUUCCUCCAUGUUUUCUUCCCUUAUCUUACUGUCAUUGUCCUUACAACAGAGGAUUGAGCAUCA", "bound/input enrichment [ratio]": 2.34}
{"Sequence": "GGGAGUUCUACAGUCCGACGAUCAACGUGGAGUUGAGUUCCUUGGCCCGGCUUCCCAGCUUAAAUAAACUCCGGAAGUUGGAACUUAGUGAUAAUAUAAUUUCUGGAGGCUUGGAAGUCCUGGCAGAGAAAUGUCCAAAUCUUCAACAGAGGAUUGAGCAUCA", "bound/input enrichment [ratio]": 2.93}
